# Experimental data collected from several papers.
# Lines come from different studies, so protocols differ.
# Target: Lysine-specific histone demethylase 1A (KDM1A, Homo sapiens, UniProt O60341)
SMILES,read-out,mode,method,measurement,value
C#CCSc1nc(Nc2ccc(Cl)cc2)c(C#N)c(-c2ccccc2)n1,enzyme activity,inhibitor,fluorescence,IC50,> 64 µM
NCCCC[N+](CCCN)(CCCN)CCCN,enzyme activity,inhibitor,absorbance,Ki,29 µM
CCCSc1nc(Sc2nnnn2C)c2ncn(Cc3ccccc3)c2n1,enzyme activity,inhibitor,fluorescence,IC50,> 10 µM
COc1cc(-c2nc(SCc3cn(CC(=O)NC(=O)Nc4ccccn4)nn3)nc(Nc3cccc(C(F)(F)F)c3)c2C#N)cc(OC)c1OC,enzyme activity,inhibitor,fluorescence,IC50,0.387 µM
Brc1ccc(Cn2nnc3c(Sc4nnnn4-c4ccccc4)nc(SCc4ccccc4)nc32)cc1,enzyme activity,inhibitor,fluorescence,IC50,0.41 µM
COc1ccc(CCCN[C@H]2CCC[C@@H]2CN[C@@H]2CCC[C@H]2CNCCCCN[C@@H]2CCC[C@H]2CN)cc1,enzyme activity,inhibitor,,Ki,4.2 µM
CCCSc1nc(Sc2nnnn2C)c2nnn(CCCN3CCOCC3)c2n1,enzyme activity,inhibitor,fluorescence,IC50,2.09 µM
C[C@@H]1O[C@@H](OC[C@H]2O[C@@H](OCCc3ccc(O)c(O)c3)[C@H](O)[C@@H](O)[C@@H]2OC(=O)/C=C/c2ccc(O)c(O)c2)[C@H](O)[C@H](O)[C@H]1O,binding,,SPR,Kd,5.2 µM
NCCCCN(CCCN)CCCN,enzyme activity,inhibitor,absorbance,Ki,> 50 µM
COc1ccccc1Nc1nc(SCc2cn(CC(=O)NC(=O)Nc3ccccn3)nn2)nc(-c2ccc(C(C)C)cc2)c1C#N,enzyme activity,inhibitor,fluorescence,IC50,> 10 µM
C/C(=N\NC(=O)c1cccc(S(=O)(=O)N2CCOCC2)c1)c1cc(Cl)ccc1O,cell-free assay,inhibitor,TR-FRET,IC50,2.5 µM
